Results from different studies.
± gives the spread as reported.

COc1cc(OC)cc(C2=C3C(C)=C(I)C(C)=[N+]3[B-](F)(F)n3c(/C=C/c4c[nH]c5ccc([N+](=O)[O-])cc45)c(I)c(C)c32)c1 — absorption maximum (dichloromethane): 606 nm
O=c1nc(NO)ccn1[C@@H]1O[C@H](CO)[C@@H](O)[C@H]1O — protein level (Western blot, measured: CYP2B6; rat, arthritis model, liver; oral, 80 mg/kg twice daily, 5 days; reference: control group): > 1.5 fold
Cc1ccc(/N=N/c2c(O)ccc3ccccc23)c(C)c1 — freeze-thaw stability deviation (rat whole blood; 16.0 µg/L, freeze-thaw cycle 1): -0.3%
C[C@H](NC(=O)[C@H](C)NC(=O)[C@H](CCCNC(=N)N)NC(=O)[C@H](CCCNC(=N)N)NC(=O)[C@H](CCCNC(=N)N)NC(=O)[C@H](C)NC(=O)[C@H](C)NC(=O)[C@H](CCCNC(=N)N)NC(=O)[C@H](CCCNC(=N)N)NC(=O)[C@H](CCCNC(=N)N)NC(=O)[C@H](CCCNC(=N)N)NC(=O)c1ccc2c(c1)C(=O)OC21c2ccc(O)cc2Oc2cc(O)ccc21)C(=O)N[C@@H](CCCNC(=N)N)C(=O)N[C@@H](CCCNC(=N)N)C(=O)N[C@@H](CCCNC(=N)N)C(=O)N[C@@H](C)C(=O)N[C@@H](C)C(=O)N[C@@H](CCCNC(=N)N)C(=O)N[C@@H](CCCNC(=N)N)C(=O)N[C@@H](CCCNC(=N)N)C(=O)N[C@@H](CCCNC(=N)N)C(=O)O — uptake reduction (bovine cartilage, 90% GAG depleted; concentration not given; reference: healthy cartilage): > 50%
CC(=O)N([O-])CCCCCNC(=O)CCC(=O)N([O-])CCCCCNC(=O)CCC(=O)N([O-])CCCCCN.[89Zr+4] — intact complex (radio-iTLC; aqueous buffer; initial, pH 5.5, 37 °C, EDTA challenge, together with: 100-fold excess EDTA): 99.1 ± 0.2%
CC(C)NC(=O)N1CC=C(c2cc3c(Nc4cc5ncsc5cc4F)ncnc3s2)CC1 — intrinsic clearance (human liver microsomes; 1 µM): < 12 mL/min/g protein
C[Si](C)(C[C@@H](CN)CC(=O)O)C1CC1 — performance time (neuromuscular coordination; Wistar rat male; oral, 100 mg/kg, 2 h): 180 s
CCCCCCCCCCCCCCCCCC(=O)Nc1ccn(C2OC(CO)C(O)C2(F)F)c(=O)n1 (stereo not drawn) — terminal half-life (athymic nude mouse, female, BxPC-3 xenograft, plasma; intravenous, 25 mg/kg gemcitabine equivalent): 21 ± 1.6 min
Cc1ccc(NCC(=O)N2CCCCC2)cc1S(=O)(=O)N1CCOCC1 — kinetic solubility (water): > 250 µM
O=C([O-])CN1CCN(CC(=O)[O-])CCN(CC(=O)NCC2CCC(C(=O)NC(Cc3ccc4ccccc4c3)C(=O)NCCCCC(NC(=O)NC(CCC(=O)O)C(=O)O)C(=O)O)CC2)CCN(CC(=O)[O-])CC1.[44Sc+3] (stereo not drawn) — intact complex (transchelation stability; 2 h, 37 °C, together with: EDTA 10 mM): 97.3 ± 0.1%
Cn1c(=O)oc2ccc(-c3ccc(CC(C#N)NC(=O)C4CNCCCO4)c(F)c3)cc21 (stereo not drawn) — subjects with TRAE (measured: blood bilirubin increased; human; 60 mg single dose, fasted): 0%
CC(NCCc1nsc2ccccc12)c1cccc2c1OCO2 (stereo not drawn) — serum calcium change (mouse; subcutaneous, 3 mg/kg, 4 h): no effect
COc1ccc2cc(-c3ccc(-c4ccc(C)cn4)nc3)oc2c1 — radiative decay rate constant (TCSPC; acetonitrile; zinc complex): 0.1 ns⁻¹
C#CCNC(=O)C(CC(C)(C)F)NC(c1ccc(-c2ccc(S(C)(=O)=O)cc2)cc1)C(F)(F)F (stereo not drawn) — GSH adduct formation (LC-MS UV trace; aqueous buffer; 23 h, pH 7.5, 37 °C, together with: GSH 5 mM): < 1%
C[N+](C)(C)CCO.O=C(O)[C@@H](O)Cc1ccccc1.O=C([O-])[C@@H](O)Cc1ccccc1 — pH (water; concentration not given): 3.87 ± 2.5
COC(=O)C1OC(Oc2c(-c3ccccc3)oc3cc(O)c(O)c(O)c3c2=O)C(O)C(O)C1O (stereo not drawn) — organ weight (BALB/c mouse, spleen; 2 mg/kg): 0.78 ± 0.3 g
CC12CC(c3ccc(S(C)(=O)=O)cc3)C3=C4CCC(=O)C=C4CCC3C1CCC2(O)C(F)(F)C(F)(F)F (stereo not drawn) — drug-related headache incidence (human; oral, 5 mg single; reference: subjects): 50%
CC(C)C[C@H](NC(=O)C[C@H](O)[C@H](CC(C)C)NC(=O)[C@H](Cc1c[nH]cn1)NC(=O)CNC(=O)[C@@H](NC(=O)[C@H](C)NC(=O)[C@H](Cc1c[nH]c2ccccc12)NC(=O)[C@H](CCC(N)=O)NC(=O)[C@@H](Cc1ccccc1)NC(=O)CCNC(=O)CCNC(=O)CN1CCN(CC(=O)O)CCN(CC(=O)O)CCN(CC(=O)O)CC1)C(C)C)C(N)=O [lutetium-177 labelled] — absorbed dose (MIRD; mouse PC-3 xenograft, kidneys; intravenous, 50 MBq, without PA): 3.5 Gy
CC(C)C[C@@H](NC(=O)[C@H](NC(=O)[C@H]1CCCN1)[C@H](C)O)C(=O)N[C@H](Cc1c[nH]cn1)C(=O)N[C@@H](C(=O)N[C@H](Cc1c[nH]cn1)C(=O)N[C@H](CC(N)=O)C(=O)N[C@H](CCCNC(=N)N)C(=O)N[C@H](CCCNC(=N)N)C(=O)N[C@H](CCCNC(=N)N)C(=O)N[C@H](CCCNC(=N)N)C(=O)N[C@H](CCCNC(=N)N)C(N)=O)[C@H](C)O — Cmax (beagle dog, plasma; intravenous, 3 mg/kg, single dose): 32000 ng/mL
CC(C)[C@H](NC(=O)CNC(=O)[C@H](CCC(N)=O)NC(=O)[C@H](C)N)C(=O)O — clearance (healthy volunteers, LPS endotoxaemia, plasma; intravenous, 45 mg/kg/h, 2 h infusion, geometric mean, together with: LPS 2 ng/kg): 233 mL/min/kg
CCCC(CCC)NC(=O)c1ccc(OC2OC(C(=O)O)C(O)C(O)C2O)c(O)c1 (stereo not drawn) — AUC(0-last) ratio (male Sprague-Dawley rats, plasma; oral, 200 mg/kg of parent drug; reference: 200 over 20 mg/kg dose): 3.2
C=C(c1cc(F)c(C(=O)O)c(F)c1)c1cc2c(cc1C)C(C)(C)CCC2(C)C — LDL level (Sprague-Dawley rat, male, plasma; oral, 100 mg/kg, 24 h, sesame oil vehicle): 3 mg/dL
CCCCCCCCCCCCCCCC(=O)N[C@@H](CCCCN)C(=O)N[C@H](C(=O)N[C@H](C(=O)N[C@@H](CCCCN)C(=O)N[C@@H](CO)C(=O)O)[C@@H](C)O)[C@@H](C)O — percent of applied dose in dermis (hairless mouse, skin, Franz cell; 50 µg/cm^2 applied, 24 h): 0.6%
Cc1ccc(OCC(=O)N(Cc2cccs2)c2ccn[nH]2)cc1 — Cmax (male beagle dog, plasma; oral, 30 mg/kg, single dose): 41.9 ng/mL
N=C(N)NCCC[C@@H]1NC(=O)[C@H](Cc2c[nH]c3ccccc23)NC(=O)[C@@H](CC2CCCCC2)NC(=O)[C@@H]2CCCN2C(=O)[C@@H](NC(=O)CCc2ccccc2)CCCNC1=O — beta rate constant (two-compartment model; C57BL/6J mice, brain; intraperitoneal, 1 mg/kg): 0.23 h⁻¹
CCCCCCCCCCCCCC(=O)N[C@@H](CO)C(=O)N[C@H](C(=O)N[C@@H](Cc1ccc(O)cc1)C(=O)N[C@@H](CCCNC(=N)N)C(=O)N[C@@H](CCCNC(=N)N)C(=O)NCC(=O)N[C@@H](C)C(=O)N[C@@H](CCCNC(=N)N)C(=O)N[C@@H](CCCNC(=N)N)C(=O)N[C@@H](Cc1c[nH]c2ccccc12)C(=O)N[C@@H](CCCNC(=N)N)C(=O)N[C@@H](CCCCN)C(=O)N[C@@H](CC(C)C)C(=O)O)[C@@H](C)CC — baseline AMPAR EPSC (Sprague-Dawley rat, CA1 neurons, hippocampal slices; 5 µM, 15 min): no effect
CC(=O)Nc1ccc(C(N)=O)c(F)c1 — AUC (LC-MS/MS; human, plasma; oral, 25 mg, parent drug equivalents, 1): 2120 µg-eq·h/L
